Experimental data of several laboratories.
Every numbered part comes from another study and shows a few of its results, in no order.

Sample 1
Target: Sal-like protein 4, full length isoform A (SALL4, Homo sapiens, UniProt Q9UJQ4, residues 1-1053)
UniProt Q9UJQ4, sequence (whole entry, looked up): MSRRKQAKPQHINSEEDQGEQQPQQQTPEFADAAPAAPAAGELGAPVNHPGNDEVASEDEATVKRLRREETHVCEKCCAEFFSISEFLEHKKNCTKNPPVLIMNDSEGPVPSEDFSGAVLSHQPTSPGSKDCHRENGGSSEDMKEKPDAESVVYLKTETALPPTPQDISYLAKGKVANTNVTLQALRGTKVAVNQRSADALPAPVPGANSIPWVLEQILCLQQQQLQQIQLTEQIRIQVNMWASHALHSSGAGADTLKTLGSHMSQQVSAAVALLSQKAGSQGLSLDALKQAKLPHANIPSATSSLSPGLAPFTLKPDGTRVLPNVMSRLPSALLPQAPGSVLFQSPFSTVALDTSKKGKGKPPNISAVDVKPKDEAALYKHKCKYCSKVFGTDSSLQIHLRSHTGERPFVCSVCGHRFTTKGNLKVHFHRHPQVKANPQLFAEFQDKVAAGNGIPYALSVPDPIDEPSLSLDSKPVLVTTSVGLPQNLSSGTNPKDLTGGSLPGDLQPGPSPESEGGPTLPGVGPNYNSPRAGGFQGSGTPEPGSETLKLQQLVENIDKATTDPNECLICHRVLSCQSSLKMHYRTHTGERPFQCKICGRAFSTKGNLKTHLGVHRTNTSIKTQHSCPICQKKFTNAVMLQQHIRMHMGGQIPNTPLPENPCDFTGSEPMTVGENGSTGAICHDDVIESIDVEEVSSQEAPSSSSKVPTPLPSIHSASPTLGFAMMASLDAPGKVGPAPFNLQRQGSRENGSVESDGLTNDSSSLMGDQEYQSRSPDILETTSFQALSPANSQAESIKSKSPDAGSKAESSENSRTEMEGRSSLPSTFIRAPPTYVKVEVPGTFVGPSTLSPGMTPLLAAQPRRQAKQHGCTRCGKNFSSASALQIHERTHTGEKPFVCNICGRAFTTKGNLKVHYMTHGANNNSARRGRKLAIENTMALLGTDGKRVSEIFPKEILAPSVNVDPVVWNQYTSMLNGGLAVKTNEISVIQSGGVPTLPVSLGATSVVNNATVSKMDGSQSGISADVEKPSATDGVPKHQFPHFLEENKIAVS
Method: universal PBM
Molecule type: double-stranded DNA, one strand shown
Medium: in vitro
Tested at: 600 nM
Notes: 8-mer, flanks averaged, mean of replicates
Reading: higher = stronger binding
| Strand | E-score |
| --- | --- |
| ACGCCGCT | -0.327 |
| GGCGGCTA | -0.197 |
| ATTCGATC | 0.0931 |
| AATACTCG | 0.126 |

Sample 2
Target: Interferon regulatory factor 7, full length, phosphomimetic (IRF7, Homo sapiens, UniProt Q92985, residues 1-503, S471D/S472D/S475D/S476D/S477D/S483D/S484D/S487D)
Method: protein-binding microarray
Molecule type: double-stranded DNA, one strand shown
Medium: in vitro
Tested at: 2200 nM top
Notes: 60-bp whole probe
Added: salmon DNA 0.4 mg/ml
Baseline: random background probes
Reading: higher = stronger binding
Shared flanks, not repeated: GCCTAGCAC … GTCTTGATTCGCTTGACGCTGCTG
Target sequence (chain): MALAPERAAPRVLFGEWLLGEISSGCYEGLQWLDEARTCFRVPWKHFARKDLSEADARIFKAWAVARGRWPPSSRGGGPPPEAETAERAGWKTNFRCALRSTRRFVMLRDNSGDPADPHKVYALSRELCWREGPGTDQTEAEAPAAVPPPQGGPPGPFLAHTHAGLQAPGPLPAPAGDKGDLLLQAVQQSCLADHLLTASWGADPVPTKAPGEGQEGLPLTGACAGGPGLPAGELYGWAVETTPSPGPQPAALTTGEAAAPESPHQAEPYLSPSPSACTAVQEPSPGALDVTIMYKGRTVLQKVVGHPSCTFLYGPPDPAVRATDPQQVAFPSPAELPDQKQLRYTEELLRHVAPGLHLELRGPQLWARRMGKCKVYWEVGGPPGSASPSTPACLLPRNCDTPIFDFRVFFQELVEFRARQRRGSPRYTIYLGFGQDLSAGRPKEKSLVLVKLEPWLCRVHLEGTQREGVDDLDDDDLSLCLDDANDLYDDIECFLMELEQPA
| Strand | fitted relative affinity [z-score] |
| --- | --- |
| GACGGTATCGGGTATCGGGACGTGCTA | -0.0627 |
| TCATAACTCATTCTCCAACTGTGCTAG | 1.37 |
| TCAGGTCACTCTCTGGGACTGTGCTAG | -0.0408 |
| TTAGAACTGGGGACTGGATTGGTGCTA | -0.459 |
| TTCACTTTCTTTAACATATTGTGCTAG | 2.1 |

Sample 3
Target: Histone acetyltransferase KAT6A, both winged helices, GST fusion (KAT6A, Homo sapiens, UniProt Q92794, residues 1-181)
Method: protein binding microarray
Molecule type: double-stranded DNA, one strand shown
Medium: in vitro
Tested at: not given
Notes: 8-mer, flanks averaged, mean of 2 arrays, mostly near background
Baseline: not given
Reading: higher = stronger binding
Target sequence (chain): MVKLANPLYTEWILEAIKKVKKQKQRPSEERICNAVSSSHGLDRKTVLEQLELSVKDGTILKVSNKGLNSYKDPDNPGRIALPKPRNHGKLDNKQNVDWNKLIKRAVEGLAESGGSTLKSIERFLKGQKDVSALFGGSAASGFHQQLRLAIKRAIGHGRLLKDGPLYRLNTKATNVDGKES
| Strand | E-score |
| --- | --- |
| AACAGGGT | -0.259 |
| AACCCCAT | -0.178 |
| AAAAGGAT | -0.188 |
| CACCTTCA | -0.0549 |
| ATACCCGA | 0.162 |

Single results of other studies
| Molecule | target | assay | test system | conditions | scale | endpoint | result |
| --- | --- | --- | --- | --- | --- | --- | --- |
| PhoQ, residues 284 288 289 292 302 303 SASVAL | PhoP, residues 12 14 15 18 19 NIMAP (Escherichia coli, UniProt P23836) | Sort-seq, item: YFP reporter | E. coli | PhoQ-PhoP variant library, added: 10 µM Mg2+ | baseline: high Mg2+ state, higher = stronger signaling | fold induction | 0.855 |

Some of these lines once more (sample 2):
| Strand | fitted relative affinity [z-score] |
| --- | --- |
| GACGGTATCGGGTATCGGGACGTGCTA | -0.0627 |
| TCATAACTCATTCTCCAACTGTGCTAG | 1.37 |
